# Measurements collected from several papers.
# Each line is one published result; not all experiments were run side by side. Numbers after ± are the reported error.
# BPTF bromodomain: Nucleosome-remodeling factor subunit BPTF, bromodomain (BPTF, Homo sapiens, UniProt Q12830)
# NLRP3: NACHT, LRR and PYD domains-containing protein 3 (NLRP3, Homo sapiens, UniProt Q96P20)
# UniProt Q96P20, sequence (whole entry, looked up): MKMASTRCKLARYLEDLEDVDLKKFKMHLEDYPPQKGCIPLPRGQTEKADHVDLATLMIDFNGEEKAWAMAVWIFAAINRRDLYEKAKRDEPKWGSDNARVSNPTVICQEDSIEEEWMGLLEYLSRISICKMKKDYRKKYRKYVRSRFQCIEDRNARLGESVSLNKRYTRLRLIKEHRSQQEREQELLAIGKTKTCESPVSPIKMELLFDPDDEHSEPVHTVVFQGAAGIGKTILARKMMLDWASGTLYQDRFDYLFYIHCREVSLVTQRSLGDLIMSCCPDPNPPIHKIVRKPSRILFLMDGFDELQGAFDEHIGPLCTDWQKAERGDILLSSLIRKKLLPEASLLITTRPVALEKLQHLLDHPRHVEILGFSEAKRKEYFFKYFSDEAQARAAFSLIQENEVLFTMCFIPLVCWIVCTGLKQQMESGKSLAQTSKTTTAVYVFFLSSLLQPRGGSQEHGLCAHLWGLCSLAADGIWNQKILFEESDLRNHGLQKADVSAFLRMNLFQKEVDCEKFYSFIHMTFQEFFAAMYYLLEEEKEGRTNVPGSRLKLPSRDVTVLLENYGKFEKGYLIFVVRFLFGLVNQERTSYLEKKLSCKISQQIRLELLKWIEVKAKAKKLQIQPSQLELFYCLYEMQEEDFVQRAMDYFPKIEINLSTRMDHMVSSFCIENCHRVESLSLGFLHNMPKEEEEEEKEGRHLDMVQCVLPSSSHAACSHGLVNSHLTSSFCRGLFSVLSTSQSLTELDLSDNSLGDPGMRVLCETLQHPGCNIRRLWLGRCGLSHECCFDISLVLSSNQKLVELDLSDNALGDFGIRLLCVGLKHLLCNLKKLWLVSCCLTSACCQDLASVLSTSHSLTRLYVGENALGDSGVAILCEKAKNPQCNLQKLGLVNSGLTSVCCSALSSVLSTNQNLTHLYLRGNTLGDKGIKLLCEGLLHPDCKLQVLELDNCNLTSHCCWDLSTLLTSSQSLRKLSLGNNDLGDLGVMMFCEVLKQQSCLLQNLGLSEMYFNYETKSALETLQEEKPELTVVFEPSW
# TIAM1 PDZ domain: Rho guanine nucleotide exchange factor TIAM1, PDZ domain (TIAM1, Homo sapiens, UniProt Q13009)
# UniProt Q13009, sequence (whole entry, looked up): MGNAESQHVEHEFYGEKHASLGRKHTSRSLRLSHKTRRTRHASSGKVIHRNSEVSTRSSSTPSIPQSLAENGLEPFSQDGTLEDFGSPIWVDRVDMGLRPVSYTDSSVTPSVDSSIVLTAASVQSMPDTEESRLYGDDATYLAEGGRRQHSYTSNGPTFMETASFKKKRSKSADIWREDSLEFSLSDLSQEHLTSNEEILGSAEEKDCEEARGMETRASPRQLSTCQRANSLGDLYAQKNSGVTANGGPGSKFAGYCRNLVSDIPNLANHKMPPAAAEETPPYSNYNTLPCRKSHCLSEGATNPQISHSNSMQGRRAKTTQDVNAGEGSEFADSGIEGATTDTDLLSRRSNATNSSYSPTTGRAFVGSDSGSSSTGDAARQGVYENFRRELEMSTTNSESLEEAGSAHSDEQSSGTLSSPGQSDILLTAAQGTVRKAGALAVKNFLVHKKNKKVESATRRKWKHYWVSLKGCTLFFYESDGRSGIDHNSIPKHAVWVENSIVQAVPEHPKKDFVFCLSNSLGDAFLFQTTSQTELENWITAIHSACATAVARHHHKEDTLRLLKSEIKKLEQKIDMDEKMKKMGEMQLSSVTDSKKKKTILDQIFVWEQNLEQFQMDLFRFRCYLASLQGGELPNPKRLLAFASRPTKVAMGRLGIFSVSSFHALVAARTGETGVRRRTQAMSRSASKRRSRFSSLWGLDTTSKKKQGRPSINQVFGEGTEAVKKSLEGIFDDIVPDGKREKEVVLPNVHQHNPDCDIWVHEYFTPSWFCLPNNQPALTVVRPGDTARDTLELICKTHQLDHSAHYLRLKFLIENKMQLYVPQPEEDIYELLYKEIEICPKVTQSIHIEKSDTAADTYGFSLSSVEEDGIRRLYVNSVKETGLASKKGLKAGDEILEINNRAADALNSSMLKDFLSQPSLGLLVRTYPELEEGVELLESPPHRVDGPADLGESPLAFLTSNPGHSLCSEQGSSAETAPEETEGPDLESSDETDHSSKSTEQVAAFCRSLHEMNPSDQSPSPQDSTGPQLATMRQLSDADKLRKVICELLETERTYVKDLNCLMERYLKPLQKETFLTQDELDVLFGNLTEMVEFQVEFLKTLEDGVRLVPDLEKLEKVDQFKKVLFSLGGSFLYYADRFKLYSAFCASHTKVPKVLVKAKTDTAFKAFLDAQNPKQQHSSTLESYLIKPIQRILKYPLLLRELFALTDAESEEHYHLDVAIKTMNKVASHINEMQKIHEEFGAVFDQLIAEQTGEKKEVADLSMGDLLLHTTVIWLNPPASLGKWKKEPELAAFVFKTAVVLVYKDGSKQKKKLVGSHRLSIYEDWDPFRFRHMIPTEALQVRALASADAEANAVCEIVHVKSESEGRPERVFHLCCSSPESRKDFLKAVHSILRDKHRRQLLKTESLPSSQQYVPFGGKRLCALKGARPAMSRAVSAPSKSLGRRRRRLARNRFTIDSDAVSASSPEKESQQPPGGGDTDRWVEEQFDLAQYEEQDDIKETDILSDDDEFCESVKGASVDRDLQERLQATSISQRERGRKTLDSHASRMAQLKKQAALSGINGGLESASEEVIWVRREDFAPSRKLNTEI
# LGALS9 N-terminal CRD: Galectin-9, N-terminal CRD (LGALS9, Homo sapiens, UniProt O00182)
# UniProt Q09472, sequence (whole entry, looked up): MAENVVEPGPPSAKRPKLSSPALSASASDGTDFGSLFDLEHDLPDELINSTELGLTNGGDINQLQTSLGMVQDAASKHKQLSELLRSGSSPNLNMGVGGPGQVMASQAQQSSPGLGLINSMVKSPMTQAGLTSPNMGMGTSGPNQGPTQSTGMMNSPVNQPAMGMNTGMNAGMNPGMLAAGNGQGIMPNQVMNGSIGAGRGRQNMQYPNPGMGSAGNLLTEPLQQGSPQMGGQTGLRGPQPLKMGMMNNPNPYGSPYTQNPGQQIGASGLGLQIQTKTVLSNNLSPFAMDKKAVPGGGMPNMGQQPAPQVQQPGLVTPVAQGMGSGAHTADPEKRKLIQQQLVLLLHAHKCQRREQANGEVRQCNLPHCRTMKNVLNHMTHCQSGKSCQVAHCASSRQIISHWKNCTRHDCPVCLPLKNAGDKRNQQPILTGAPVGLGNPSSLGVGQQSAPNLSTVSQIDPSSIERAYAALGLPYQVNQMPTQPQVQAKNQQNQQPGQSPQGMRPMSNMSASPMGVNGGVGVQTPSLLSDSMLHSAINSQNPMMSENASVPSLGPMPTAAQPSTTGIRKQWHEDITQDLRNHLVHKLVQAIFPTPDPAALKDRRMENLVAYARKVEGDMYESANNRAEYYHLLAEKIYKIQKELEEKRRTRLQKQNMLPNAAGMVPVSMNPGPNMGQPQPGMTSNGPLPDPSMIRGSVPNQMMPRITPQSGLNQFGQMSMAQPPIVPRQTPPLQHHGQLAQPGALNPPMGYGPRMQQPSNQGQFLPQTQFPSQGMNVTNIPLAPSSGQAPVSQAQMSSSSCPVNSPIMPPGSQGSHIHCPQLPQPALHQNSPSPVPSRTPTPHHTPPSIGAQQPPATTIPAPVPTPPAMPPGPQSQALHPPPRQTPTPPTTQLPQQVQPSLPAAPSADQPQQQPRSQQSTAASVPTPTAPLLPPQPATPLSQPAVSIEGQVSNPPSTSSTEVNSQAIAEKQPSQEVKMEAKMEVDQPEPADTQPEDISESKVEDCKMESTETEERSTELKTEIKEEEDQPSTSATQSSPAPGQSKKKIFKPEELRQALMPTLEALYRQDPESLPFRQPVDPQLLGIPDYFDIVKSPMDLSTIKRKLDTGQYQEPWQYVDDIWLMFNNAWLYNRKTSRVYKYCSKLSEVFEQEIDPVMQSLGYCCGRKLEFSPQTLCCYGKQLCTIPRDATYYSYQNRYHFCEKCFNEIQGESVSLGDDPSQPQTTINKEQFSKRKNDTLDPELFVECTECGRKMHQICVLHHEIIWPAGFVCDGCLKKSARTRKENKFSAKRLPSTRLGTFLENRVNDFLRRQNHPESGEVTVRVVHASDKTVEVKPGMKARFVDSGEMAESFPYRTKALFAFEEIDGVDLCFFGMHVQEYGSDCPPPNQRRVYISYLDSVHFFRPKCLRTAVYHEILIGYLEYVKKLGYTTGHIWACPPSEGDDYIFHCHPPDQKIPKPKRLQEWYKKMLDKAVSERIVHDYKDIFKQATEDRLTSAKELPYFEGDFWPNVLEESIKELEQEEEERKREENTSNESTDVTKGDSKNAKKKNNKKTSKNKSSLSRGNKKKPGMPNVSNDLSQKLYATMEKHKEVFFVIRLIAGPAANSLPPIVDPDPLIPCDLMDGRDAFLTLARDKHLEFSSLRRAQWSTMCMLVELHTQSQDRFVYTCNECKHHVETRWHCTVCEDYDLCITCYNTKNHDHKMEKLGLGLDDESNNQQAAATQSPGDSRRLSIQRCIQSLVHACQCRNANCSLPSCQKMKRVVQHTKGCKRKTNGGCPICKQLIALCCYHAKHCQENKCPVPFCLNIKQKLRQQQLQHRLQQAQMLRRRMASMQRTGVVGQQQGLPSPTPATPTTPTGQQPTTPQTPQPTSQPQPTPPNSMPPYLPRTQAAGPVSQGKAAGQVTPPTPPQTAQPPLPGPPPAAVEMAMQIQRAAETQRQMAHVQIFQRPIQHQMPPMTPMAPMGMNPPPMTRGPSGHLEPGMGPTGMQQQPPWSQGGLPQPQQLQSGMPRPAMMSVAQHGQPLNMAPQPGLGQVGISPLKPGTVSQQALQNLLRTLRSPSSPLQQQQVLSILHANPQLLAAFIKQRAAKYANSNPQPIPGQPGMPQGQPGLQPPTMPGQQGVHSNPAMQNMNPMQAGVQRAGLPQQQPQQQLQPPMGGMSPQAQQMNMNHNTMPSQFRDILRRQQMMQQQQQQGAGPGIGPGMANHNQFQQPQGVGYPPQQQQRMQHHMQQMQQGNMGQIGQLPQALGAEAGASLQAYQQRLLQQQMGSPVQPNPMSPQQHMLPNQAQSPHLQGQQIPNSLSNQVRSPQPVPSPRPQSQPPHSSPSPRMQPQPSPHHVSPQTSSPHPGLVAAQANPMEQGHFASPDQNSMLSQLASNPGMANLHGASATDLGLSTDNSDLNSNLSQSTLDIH
SMILES,target,test,setting,Kd [µM]
N=C(N)NCCC[C@@H]1NC(=O)[C@H](Cc2ccc3ccccc3c2)NC(=O)[C@@H](Cc2ccccc2)NC(=O)[C@H](Cc2ccccc2)NC(=O)[C@H](CCC(=O)NCCOCCOCC(=O)N[C@@H](CCCCNC(=S)Nc2ccc3c(c2)C(=O)OC32c3ccc(O)cc3Oc3cc(O)ccc32)C(N)=O)NC(=O)[C@@H](CCCNC(=N)N)NC(=O)[C@H](CCCNC(=N)N)NC(=O)[C@@H](CCCNC(=N)N)NC1=O,fetal bovine serum proteins,"binding, fluorescence polarization",1 h,29 ± 3
Cc1ccc2c(c1)OC(O)(C(=O)O)C(=O)N2Cc1ccccc1 (stereo not drawn),"Dihydroxy-acid dehydratase, chloroplastic (DHAD, Arabidopsis thaliana, UniProt Q9LIR4)",microscale thermophoresis,,< 3
CC#Cc1cc2c3c(c1C#CC)O[C@H](CO)[C@H](O)[C@@H]3OC2,"Galectin-1 (LGALS1, Homo sapiens, UniProt P09382)","ligand displacement, FP",,1100
CC(=O)NCCCC[C@H](NC(=O)CNC(=O)[C@H](CO)NC(=O)[C@H](CC(=O)O)NC(=O)[C@H](CCCCN)NC(=O)CNC(=O)[C@H](C)NC(=O)[C@H](CCCCN)NC(=O)CNC(=O)CNC(=O)[C@H](C)NC(=O)[C@@H](N)Cc1ccc(O)cc1)C(=O)N[C@@H](C)C(=O)N[C@@H](CCCCNC(C)=O)C(=O)N[C@H](C(=O)N[C@@H](CCCCN)C(=O)N[C@@H](C)C(=O)N[C@H](C(=O)N[C@@H](CO)C(=O)N[C@@H](CCCNC(=N)N)C(N)=O)C(C)C)[C@@H](C)O,BPTF bromodomain,"bromodomain binding, PrOF NMR titration","pH 7.4, 5-fluorotryptophan-labelled bromodomain, 40-50 µM",1440
COc1cccc(C(=O)Nc2cccc(-c3cn(Cc4ccccc4)nn3)c2)c1,"Cystathionine gamma-synthase 1, chloroplastic (CGS1, Arabidopsis thaliana, UniProt P55217)","binding, microscale thermophoresis",,0.182
Cc1cc(N2CCC(CO)(C3CC3)C2=O)cc(C(=O)NCc2cc(F)cc(-c3cnn(C)c3)c2)n1 (stereo not drawn),"Proline--tRNA ligase (Plasmodium falciparum, UniProt Q8I5R7)","binding, MST",,0.222
CC[C@H](C)[C@H](NC(=O)[C@@H]1CCCN1C(=O)[C@@H](NC(=O)[C@H](C)N)C(C)C)C(=O)N[C@@H](C)C(=O)N[C@@H](CCC(N)=O)C(=O)N[C@@H](CCCCN)C(=O)N[C@@H](CO)C(=O)N[C@@H](CCC(=O)O)C(=O)N1CCC[C@H]1C(=O)N[C@@H](Cc1c[nH]cn1)C(=O)N[C@@H](CO)C(=O)N[C@@H](CC(C)C)C(=O)N[C@@H](CO)C(=O)N[C@@H](CO)C(=O)O,"Baculoviral IAP repeat-containing protein 5 (BIRC5, Homo sapiens, UniProt O15392)","binding, ITC",pH 7.5,121
NCCCC[C@H](NC(=O)[C@H](CC(N)=O)NC(=O)[C@H](CCCCNC(=O)[C@H](Cc1ccc(B(O)O)cc1)NC(=O)[C@H](Cc1ccc(O)cc1)NC(=O)[C@@H](N)Cc1ccc(B(O)O)cc1)NC(=O)[C@H](Cc1ccc(B(O)O)cc1)NC(=O)[C@H](Cc1ccc(O)cc1)NC(=O)[C@@H](N)Cc1ccc(B(O)O)cc1)C(=O)N[C@@H](CO)C(=O)N[C@@H](Cc1ccc(O)cc1)C(N)=O,HIV-1 RRE IIB RNA,dot blot,added: 1000-fold excess tRNA,26.4 ± 10.2
O=C(O)c1cc(I)cc(I)c1O,"Cellular tumor antigen p53 (TP53, Homo sapiens, UniProt P04637, M133L/N239Y/N268D/V203A/Y220C)",,"20 °C, protein 75 µM",~800
CN(C(=O)CNCc1ccc(Cl)c(Cl)c1)[C@H](Cc1ccccc1)C(=O)N(CCc1ccc(C(F)(F)F)cc1)CC(=O)NCC(N)=O,"Matrix metalloproteinase-14 (MMP14, Homo sapiens, UniProt P50281)","binding, FP",,67
O=C(O)c1ccc(/C=C2\SC(=S)N(Cc3cccc(C(F)(F)F)c3)C2=O)cc1,NLRP3,"binding, microscale thermophoresis",,~0.5
O=C(Cc1cccc(C(F)(F)F)c1)Nc1cc(Oc2cc3sc(NC(=O)C4CC4)nc3cc2Cl)ccc1F,"Receptor-interacting serine/threonine-protein kinase 3 (RIPK3, Homo sapiens, UniProt Q9Y572)","binding, competition with immobilised ligand",,> 5
CC[C@H](C)[C@H](NC(=O)[C@H](CCCCN)NC(=O)[C@H](C)NC(=O)[C@@H](NC(=O)[C@H](CCC(=O)O)NC(=O)[C@H](CCC(=O)O)NC(=O)[C@H](CCC(=O)O)NC(=O)[C@H](CO)NC(=O)[C@H](CC(C)C)NC(=O)[C@H](CC(=O)O)NC(=O)[C@H](CC(C)C)NC(=O)CNC(=O)[C@H](CCCNC(=N)N)NC(=O)[C@H](CC(C)C)NC(=O)[C@H](CO)NC(=O)CNC(=O)CNC(=O)CNC(=O)CCCC[C@@H]1SC[C@@H]2NC(=O)N[C@@H]21)C(C)C)C(=O)N[C@@H](CC(C)C)C(=O)N[C@@H](CC(=O)O)C(=O)N[C@@H](CCC(=O)O)C(=O)N[C@H](C(=O)N[C@H](C(=O)N[C@@H](CCCCN)C(=O)N[C@@H](CC(=O)O)C(=O)O)C(C)C)[C@@H](C)CC,Fab B11 antibody (human),"binding, biolayer interferometry",added: biotinylated peptide on tips,0.25 ± 0.008
Cc1ccc(S(=O)(=O)Nc2cc(-c3ccc(C#N)s3)ccc2C)cc1,"Tubulin beta chain/TUBA1B, beta subunit (Sus scrofa, UniProt P02554+Q2XVP4)",binding,,22.6
CC[C@H](C)[C@H](NC(=O)[C@H](CC(=O)O)NC(=O)[C@H](CC(=O)O)NC(=O)[C@@H]1CCCN1C(=O)[C@H](C)NC(=O)[C@H](CC(C)C)NC(=O)[C@H](CCSC)NC(=O)[C@H](CC(C)C)NC(=O)[C@H](CC(=O)O)NC(=O)[C@H](CC(=O)O)NC(=O)[C@H](CCSC)NC(=O)[C@H](C)NC(=O)[C@H](CCC(N)=O)NC(=O)[C@H](C)NC(=O)[C@@H]1CCCN1C(=O)[C@H](CC(C)C)NC(=O)[C@@H]1CCCN1C(=O)[C@H](C)NC(=O)[C@H](CC(C)C)NC(=O)[C@@H](NC(=O)[C@H](CC(N)=O)NC(=O)[C@H](CC(N)=O)NC(=O)[C@H](CCC(=O)O)NC(=O)[C@@H]1CCCN1C(=O)[C@H](CC(C)C)NC(=O)[C@H](CC(C)C)NC(=O)[C@H](CCCCN)NC(=O)[C@H](Cc1c[nH]c2ccccc12)NC(=O)[C@H](CC(C)C)NC(=O)[C@H](CC(=O)O)NC(=O)[C@H](C)NC(=O)[C@H](Cc1ccccc1)NC(=O)[C@H](C)NC(=O)[C@H](CCC(=O)O)NC(=O)[C@H](CCC(N)=O)NC(=O)[C@H](C)NC(=O)[C@H](CC(C)C)NC(=O)[C@@H]1CCCN1C(=O)[C@@H]1CCCN1C(=O)[C@H](CCC(=O)O)NC(=O)[C@@H](NC(=O)[C@H](CO)NC(=O)[C@@H]1CCCN1C(=O)[C@H](CC(=O)O)NC(=O)[C@H](CO)NC(=O)[C@H](CCC(N)=O)NC(=O)[C@@H]1CCCN1C(=O)[C@H](CCC(=O)O)NC(=O)[C@H](CCC(=O)O)NC(=O)[C@@H](N)CCSC)C(C)C)C(C)C)C(=O)N[C@@H](CCC(=O)O)C(=O)N[C@@H](CCC(N)=O)C(=O)N[C@@H](Cc1c[nH]c2ccccc12)C(=O)N[C@@H](Cc1ccccc1)C(=O)N[C@@H](C)C(=O)N[C@@H](CCC(=O)O)C(=O)N[C@@H](CC(=O)O)C(=O)O,"Histone acetyltransferase p300, TAZ1 domain (EP300, Homo sapiens, UniProt Q09472)",fluorescence anisotropy,"TAZ1 domain, added: labelled p53 TAD peptide",0.56 ± 0.045
CCCC[C@@H](C(=O)N1CCN([C@@H](CCC(N)=O)C(N)=O)C(=O)[C@@H]1C)N1CCN[C@@H](CC(C)C)C1=O,"Histone acetyltransferase p300, CH1 domain (EP300, Homo sapiens, UniProt Q09472)","binding, intrinsic tryptophan fluorescence",,0.03 ± 0.01
C=C1C(=O)C23CC1(O)CC(OC(C)=O)C2C1(C)CCCC(C)(COC(C)=O)C1CC3O (stereo not drawn),NLRP3,"binding, SPR",,5.49
C[C@H](NC(=O)[C@H](C)NC(=O)[C@H](Cc1ccc(O)cc1)NS(=O)(=O)c1cccc2c(N(C)C)cccc12)C(=O)N[C@@H](CCCNC(=N)N)C(=O)N[C@@H](CCCCN)C(=O)N[C@@H](Cc1ccccc1)C(=O)N[C@@H](C)C(=O)N[C@@H](CCCCN)C(=O)O,TIAM1 PDZ domain,fluorescence anisotropy,"25 °C, added: dansylated peptide 1 µM",> 250
CC#Cc1cc2c3c(c1)O[C@H](CO)[C@H](O)[C@@H]3OC2,LGALS9 N-terminal CRD,"binding, competitive fluorescence polarization","20 °C, galectin-9 N-terminal domain 1.0 µM",> 2000
CC[C@H](C)[C@H](NC(=O)[C@H](C)NC(=O)[C@H](CC(=O)O)NC(=O)[C@H](CC(C)C)NC(=O)[C@@H](NC(=O)[C@H](CCCCN)NC(=O)[C@H](CCCCN)NC(=O)[C@@H](NC(=O)[C@H](CCC(=O)O)NC(=O)[C@H](CCC(=O)O)NC(=O)[C@H](CCC(=O)O)NC(=O)[C@H](CO)NC(=O)[C@H](CC(C)C)NC(=O)[C@H](CC(=O)O)NC(=O)[C@H](CC(C)C)NC(=O)CNC(=O)[C@H](CCCNC(=N)N)NC(=O)[C@H](CC(C)C)NC(=O)[C@H](CO)NC(=O)CNC(=O)CNC(=O)CNC(=O)CCCC[C@@H]1SC[C@@H]2NC(=O)N[C@@H]21)C(C)C)[C@@H](C)CC)C(=O)N[C@H](C(=O)N[C@@H](CCCCN)C(=O)N[C@@H](CC(=O)O)C(=O)O)C(C)C,Fab B11 antibody (human),"binding, biolayer interferometry",added: biotinylated peptide on tips,0.027 ± 0.001
C[C@H](NC(=O)[C@H](Cc1ccc(O)cc1)NC(=O)[C@H](Cc1ccccc1)NC(=O)[C@H](CCC(=O)O)NC(=O)[C@H](CCCCN)NC(=O)[C@@H](NC(=O)[C@@H]1CCCN1C(=O)[C@H](C)NS(=O)(=O)c1cccc2c(N(C)C)cccc12)[C@@H](C)O)C(=O)O,TIAM1 PDZ domain,fluorescence anisotropy,"25 °C, PDZ domain",453 ± 22
CCCc1cc2c3c(c1CCC)O[C@H](CO)[C@H](O)[C@@H]3OC2,LGALS9 N-terminal CRD,"binding, competitive fluorescence polarization","20 °C, galectin-9 N-terminal domain 1.0 µM",> 2000
CC(=O)NCCCC[C@H](NC(=O)CNC(=O)[C@H](C)NC(=O)[C@H](CCCCN)NC(=O)CNC(=O)CNC(=O)[C@H](C)NC(=O)[C@@H](N)Cc1ccc(O)cc1)C(=O)N[C@@H](CC(=O)O)C(=O)N[C@@H](CO)C(=O)NCC(=O)N[C@@H](CCCCN)C(=O)N[C@@H](C)C(=O)N[C@@H](CCCCN)C(=O)N[C@H](C(=O)N[C@@H](CCCCNC(C)=O)C(=O)N[C@@H](C)C(=O)N[C@H](C(=O)N[C@@H](CO)C(=O)N[C@@H](CCCNC(=N)N)C(N)=O)C(C)C)[C@@H](C)O,BPTF bromodomain,"bromodomain binding, PrOF NMR titration","pH 7.4, 5-fluorotryptophan-labelled bromodomain, 40-50 µM",750
CC(=O)N[C@@H]1[C@@H](O[C@@H]2O[C@H](C(=O)O)[C@@H](O[C@@H]3O[C@H](COS(=O)(=O)O)[C@@H](OS(=O)(=O)O)[C@H](O[C@@H]4O[C@H](C(=O)O)[C@@H](OS(=O)(=O)O)[C@H](OS(=O)(=O)O)[C@H]4OS(=O)(=O)O)[C@H]3NC(C)=O)[C@H](OS(=O)(=O)O)[C@H]2OS(=O)(=O)O)[C@H](OS(=O)(=O)O)[C@@H](COS(=O)(=O)O)O[C@H]1N=[N+]=[N-],"Fibroblast growth factor 1 (FGF1, Homo sapiens, UniProt P05230)","ligand displacement, FP",,0.051
